{"data": "Published values from different studies", "note": "Numbered parts are unrelated; each lists some results of a single study. Changes are numbered by the printed parent chain."}
{"data": "Block 1", "target": "RING finger protein unkempt homolog, zinc fingers 1-6, GST-SBP tag (UNK, Homo sapiens, UniProt Q9C0B0, residues 30-357)", "technique": "RNA Bind-n-Seq", "molecule type": "RNA", "sample": "in vitro", "concentration": "not given", "notes": "RNA with constant flanks, human and mouse sites, ends assumed", "reference": "input RNA pool", "direction": "higher = stronger binding", "all sequences stand within": "GGGAGUUCUACAGUCCGACGAUC … CAACAGAGGAUUGAGCAUCA", "sequence of UniProt Q9C0B0 (30-357, looked up)": "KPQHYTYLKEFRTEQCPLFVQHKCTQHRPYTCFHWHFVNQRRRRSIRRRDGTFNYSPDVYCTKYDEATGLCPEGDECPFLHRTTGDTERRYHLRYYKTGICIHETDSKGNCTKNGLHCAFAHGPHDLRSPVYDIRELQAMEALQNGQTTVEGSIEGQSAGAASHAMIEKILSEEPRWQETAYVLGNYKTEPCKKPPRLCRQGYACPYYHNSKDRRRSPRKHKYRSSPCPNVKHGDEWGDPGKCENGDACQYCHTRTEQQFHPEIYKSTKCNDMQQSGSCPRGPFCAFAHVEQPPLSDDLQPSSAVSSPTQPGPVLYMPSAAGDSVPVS"}
{"Strand": "CAGCCAGGGAUUUUUGGGUUUUUUGUUUUGGGUUGAGUCUGGGUGUUAUUUUUGUUUGUUUUAGGCAUAUAAUUCCCGAUGUAAUUUGAUUUAAAAGUAUAACUGACUUGCUUUUAAAUC", "bound/input enrichment [ratio]": 0.533}
{"Strand": "UAUACAAAAAUUCCAGAUCCAAGCACCUGGAACCUCAACCCAGAUGCCUCCUACGUGUAUUAUUGCGCAAAUGAGACGGUGCAUGGUGUGGAGUUUGACUUUAUACCCGAUGUCAAGGGA", "bound/input enrichment [ratio]": 0.172}
{"Strand": "CCAGAUGGGACUAGCAGAUUUACCUGCAAAGGAAAGUCUGUUUUUCACUUCAUGGGGACUAGCACAUUUUCCGAGUACACAGUUGUGGCUGACAUCUCUGUUGCUAAAAUCGAUCCUUCG", "bound/input enrichment [ratio]": 0.451}
{"Strand": "CAAGUACAUCUUGGUGUUAGUGAUGAUCUUGGAUUGCUUGCUCACAUGACCGGUAGCGUAGACUUAACUUGUACAUCCAGUAUAAUAGAAGAAAAAGAAUUCAAAAUCCAUACAACUUCA", "bound/input enrichment [ratio]": 1.41}
{"Strand": "GUAGCUGAUGCUGUCACCUACCAGCUCGGUUUCCACAGCAUUGAACUGAAUGAGCCUCCACUGGUCCACACAGCAGCCAGCCUCUUUAAGGAGAUGUGUUACCGAUACCGGGAAGACCUG", "bound/input enrichment [ratio]": 0.112}
{"Strand": "AAGCCUGGAAAACCCAAGGGCAAGAAAAAGCUUUCUUCUGUUCGUCAAAAAUUUGAUCAUAGGUUCCAGCCUCAGAACCCCCUCUCUGGAGCUCAGCAGUUCGUGGCAAAGGAGCCCCAG", "bound/input enrichment [ratio]": 0.205}
{"Strand": "GAAAGUGGGAGGGCAGGGAAGGGAAAAACUAAGAGUAAACUAAAAAGAAAUGAAUUGAUCUUUUUUGAAGUGUCAGUCAGAGUGUGAGGGUUUAUGGCUACUGAGUUAGACAUCACAGUG", "bound/input enrichment [ratio]": 0.785}
{"Strand": "CUUGAUGAUGAUGAGUGUCCUUUACAAAUCUUCAGGGAAUGGCCAAGUGACAAAGGGAUUUUAGUCUUUCAGUUGAAGAGGAGGCCACCAGACCACAUCCCAAAGAAAACCAAGAAACAC", "bound/input enrichment [ratio]": 0.291}
{"data": "Block 2", "target": "Cyclic AMP-responsive element-binding protein 1, full length (CREB1, Homo sapiens, UniProt P16220, residues 1-327)", "technique": "protein-binding microarray", "molecule type": "hairpin DNA", "sample": "in vitro", "concentration": "not given", "notes": "whole hairpin DNA, median over replicate spots", "reference": "not given", "direction": "higher = stronger binding", "sequence of UniProt P16220 (whole entry, looked up)": "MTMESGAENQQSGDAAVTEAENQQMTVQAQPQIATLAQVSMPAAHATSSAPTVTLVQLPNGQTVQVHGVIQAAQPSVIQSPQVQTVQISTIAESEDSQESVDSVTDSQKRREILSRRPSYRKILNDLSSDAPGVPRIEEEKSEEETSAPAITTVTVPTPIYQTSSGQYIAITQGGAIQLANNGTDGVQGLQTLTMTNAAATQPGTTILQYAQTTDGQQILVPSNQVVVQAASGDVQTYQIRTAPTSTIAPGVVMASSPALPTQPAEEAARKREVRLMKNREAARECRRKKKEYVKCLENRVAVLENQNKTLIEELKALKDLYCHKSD"}
{"Strand": "GAGGCCGGATGAGGTCAGCCTCCTGGCTGACCTCATCCGGCCTCACACTC", "median fluorescence [a.u.]": 3180}
{"Strand": "GAGGCCGGATGACGGCAGCCTCCTGGCTGCCGTCATCCGGCCTCACACTC (5mC at 30)", "median fluorescence [a.u.]": 4500}
{"Strand": "GAGGCCGGCTGACGTCAGCCTCCTGGCTGACGTCAGCCGGCCTCACACTC", "median fluorescence [a.u.]": 13800}
{"Strand": "GAGGCCGCGGACGTCGTGCCTCCTGGCACGACGTCCGCGGCCTCACACTC (5mC at 15 29 35 36)", "median fluorescence [a.u.]": 3330}
{"Strand": "GAGGCCGGATGACCTCAGCCTCCTGGCTGAGGTCATCCGGCCTCACACTC", "median fluorescence [a.u.]": 3140}
{"Strand": "GAGGCCAGATGACGTCAGCCTCCTGGCTGACGTCATCTGGCCTCACACTC", "median fluorescence [a.u.]": 20600}
{"Strand": "GAGGCCGGATGACGACAGCCTCCTGGCTGTCGTCATCCGGCCTCACACTC", "median fluorescence [a.u.]": 6330}
{"Strand": "GAGGCCGGCTGACATCAGCCTCCTGGCTGATGTCAGCCGGCCTCACACTC", "median fluorescence [a.u.]": 3730}
{"data": "Block 3", "target": "ABI1, truncated, D143A, DHFR fusion (Arabidopsis thaliana, UniProt P49597)", "technique": "DHFR PCA, dose-response", "sample": "yeast", "notes": "Hill fit, mean, not affinity", "together with": "(+)-ABA, dose series", "direction": "lower = more sensitive", "starting sequence": "PYL1, truncated, DHFR fusion (Arabidopsis thaliana, UniProt Q8VZS8); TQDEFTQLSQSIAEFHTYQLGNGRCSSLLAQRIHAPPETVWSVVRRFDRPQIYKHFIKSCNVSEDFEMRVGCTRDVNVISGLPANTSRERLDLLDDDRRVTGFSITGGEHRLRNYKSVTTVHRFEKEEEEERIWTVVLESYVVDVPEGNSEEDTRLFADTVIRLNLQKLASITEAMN"}
{"Variant": "H34S", "ABA EC50 [µM]": 2.69}
{"Variant": "C25Y", "ABA EC50 [µM]": 209}
{"Variant": "R99Q", "ABA EC50 [µM]": 4.83}
{"Variant": "T17E", "ABA EC50 [µM]": 15.7}
{"Variant": "V70R", "ABA EC50 [µM]": 19.5}
{"Variant": "Q7F", "ABA EC50 [µM]": 1.03}
{"Variant": "F66H", "ABA EC50 [µM]": 8.54}
{"Variant": "I52H", "ABA EC50 [µM]": 6.44}
{"data": "Single results of other studies"}
{"Sequence": "FGAQMGWPV", "target": "HLA class I histocompatibility antigen, A alpha chain, allele A*80:01 (Homo sapiens, UniProt P04439)", "test": "peptide-MHC binding", "test system": "peptide", "how to read": "direction not given", "measurement": "z-score of log IC50", "result": 0.38}
